# Results from different studies.
# Every numbered part comes from another study and shows a few of its results, in no order.
# UniProt Q05195, sequence (56-136, looked up): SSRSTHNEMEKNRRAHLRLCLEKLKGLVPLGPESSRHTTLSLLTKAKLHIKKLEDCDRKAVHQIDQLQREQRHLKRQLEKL
# UniProt P48431, sequence (19-118, looked up): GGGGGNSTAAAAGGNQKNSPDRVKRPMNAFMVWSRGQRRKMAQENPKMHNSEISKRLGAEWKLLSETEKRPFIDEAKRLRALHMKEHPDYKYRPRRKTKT
# UniProt P14921, sequence (whole entry, unmodified, looked up): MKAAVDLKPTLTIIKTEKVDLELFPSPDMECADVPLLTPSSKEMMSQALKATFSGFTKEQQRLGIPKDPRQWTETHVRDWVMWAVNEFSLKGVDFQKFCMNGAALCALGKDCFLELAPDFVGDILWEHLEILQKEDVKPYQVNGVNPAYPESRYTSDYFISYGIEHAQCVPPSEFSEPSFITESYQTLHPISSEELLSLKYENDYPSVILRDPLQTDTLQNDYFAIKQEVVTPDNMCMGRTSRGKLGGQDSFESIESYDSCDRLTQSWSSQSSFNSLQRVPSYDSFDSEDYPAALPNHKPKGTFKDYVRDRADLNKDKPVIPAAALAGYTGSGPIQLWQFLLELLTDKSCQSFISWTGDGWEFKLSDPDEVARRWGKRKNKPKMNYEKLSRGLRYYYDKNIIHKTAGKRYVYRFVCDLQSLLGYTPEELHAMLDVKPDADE

# Study 1
# Target: Ras GTPase-activating protein-binding protein 1, RRM domain (G3BP1, Homo sapiens, UniProt Q13283)
# UniProt Q13283, sequence (whole entry, looked up): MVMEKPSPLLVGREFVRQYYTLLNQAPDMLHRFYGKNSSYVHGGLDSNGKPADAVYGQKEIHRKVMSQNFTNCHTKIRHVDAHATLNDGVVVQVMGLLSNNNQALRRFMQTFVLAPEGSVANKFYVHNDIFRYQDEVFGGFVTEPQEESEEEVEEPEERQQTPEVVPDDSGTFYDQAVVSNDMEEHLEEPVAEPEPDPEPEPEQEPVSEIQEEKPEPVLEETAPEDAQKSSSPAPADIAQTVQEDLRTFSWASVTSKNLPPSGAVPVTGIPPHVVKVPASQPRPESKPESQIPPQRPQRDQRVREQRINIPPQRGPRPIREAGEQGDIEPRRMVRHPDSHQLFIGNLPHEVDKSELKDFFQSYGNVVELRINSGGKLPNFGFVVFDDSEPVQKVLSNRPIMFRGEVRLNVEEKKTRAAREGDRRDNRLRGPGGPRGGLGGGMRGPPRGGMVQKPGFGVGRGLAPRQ
# Method: RNA Bind-n-Seq
# Form: RNA
# Medium: in vitro
# Tested at: 1 µM
# Setting: whole 134-nt RNA, ends assumed
# Added: 150 mM KCl
# Relative to: input library
# Direction: higher = stronger binding
Oligonucleotide,log2 enrichment
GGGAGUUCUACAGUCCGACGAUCUUGCAUUUCGAACGCGUUCUAAGAUGCCCCUGAAAGAUGUUCCCCUGGGCCAAUUAGAGGCAGAGCUCCAAGCUCCAGACAUCACUCCAGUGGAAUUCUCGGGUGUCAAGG,0.0649
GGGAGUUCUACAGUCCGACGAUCUUCCUCAAGUCCUGUGCUACACAUCGUAUGUACCGAAUCGGAGGUGGAGGAAAGUAUUAUGUUACGCCGUUCGGAUCUGCACUUCCAGCAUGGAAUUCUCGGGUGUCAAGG,-0.335
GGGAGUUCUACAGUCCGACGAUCCACAGACAACACGCACCCACACAGACAAAAAGGGAAGGGGUUGGGAUGGGGACAGGGUGCACAGCAGGGCGGGGUAGGACCCCAGCCCCUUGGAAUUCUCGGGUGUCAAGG,-0.16
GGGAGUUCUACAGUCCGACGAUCAGUCCUGUGCUACACAUCGUAUGUACCGAAUCGGGAGGGAAAAAAAGGGAAAAAGGGAAAGUAUUAUGUUACGCCGUUCGGAUCUGCACUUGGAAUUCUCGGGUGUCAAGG,0.584
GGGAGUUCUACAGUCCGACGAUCGUCCUGUGCUACACAUCGUAUGUACCGAAUCAAACCCCCAAAUUUUUAAACCCCCAAAAAAGUAUUAUGUUACGCCGUUCGGAUCUGCACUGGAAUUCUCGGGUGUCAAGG,-0.392
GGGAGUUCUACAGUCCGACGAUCCUCAAGUCCUGUGCUACACAUCGUAUGUACCGAAUCGGAAAAAAAGGUGGUGGAAAGUAUUAUGUUACGCCGUUCGGAUCUGCACUUCCAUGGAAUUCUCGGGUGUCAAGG,-0.221
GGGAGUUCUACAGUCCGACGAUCCAAGUCCUGUGCUACACAUCGUAUGUACCGAAUCGGUGGUUUUUGGAAAAAAAGGAAAGUAUUAUGUUACGCCGUUCGGAUCUGCACUUCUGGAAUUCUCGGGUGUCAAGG,-0.111
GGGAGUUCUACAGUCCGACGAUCAGUCCUGUGCUACACAUCGUAUGUACCGAAUCGGGGAGGGGUUUUUUUGGGGUGGGGAAAGUAUUAUGUUACGCCGUUCGGAUCUGCACUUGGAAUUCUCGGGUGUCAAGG,0.563

# Study 2
# Target: PABPC1L2, full length, GST fusion (mouse, UniProt A0ABA7IW68)
# Method: RNAcompete
# Form: RNA
# Medium: in vitro
# Tested at: 20 nM
# Setting: 7-mer, probes averaged, single round
# Relative to: mean of 7-mers
# Direction: higher = stronger binding
# Construct (chain): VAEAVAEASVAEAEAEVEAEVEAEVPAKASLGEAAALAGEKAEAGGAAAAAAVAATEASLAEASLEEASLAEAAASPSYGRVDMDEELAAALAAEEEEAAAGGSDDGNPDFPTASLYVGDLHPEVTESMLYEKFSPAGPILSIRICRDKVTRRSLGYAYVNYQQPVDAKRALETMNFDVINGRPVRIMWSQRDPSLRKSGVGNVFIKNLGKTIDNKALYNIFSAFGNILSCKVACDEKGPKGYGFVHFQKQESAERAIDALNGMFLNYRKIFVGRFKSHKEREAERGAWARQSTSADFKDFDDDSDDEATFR
Oligonucleotide,7-mer Z-score
GGCAAGU,0.037
CAAUACU,-0.137
CCCCAGA,-0.273
CACUAGC,-0.206
AUAAACA,6.51
UUCACAC,-0.202
GCGACUC,-0.112
GCCACAU,-0.0736

# Study 3
# Target: RNA binding protein fox-1 homolog 2, RRM domain, GST-SBP tag (RBFOX2, Homo sapiens, UniProt O43251-10, residues 100-194)
# Method: RNA Bind-n-Seq
# Form: RNA
# Medium: in vitro
# Tested at: 365 nM
# Setting: natural RNA segment, single round, ends assumed
# Relative to: no-protein control
# Direction: higher = stronger binding
# Construct (chain): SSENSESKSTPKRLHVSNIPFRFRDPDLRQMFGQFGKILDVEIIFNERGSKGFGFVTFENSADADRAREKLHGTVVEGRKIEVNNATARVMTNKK
Oligonucleotide,RBNS enrichment (R)
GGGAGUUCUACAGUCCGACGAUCUCCAUUUUGAAAGUGUCCCCGUGGUUGCACACUUCAGAGGACAGGGACUCUGUGUGUCUAAGAAGGCUGGGAUGAGGGCUCUGUUACAGGGCAGACUGUUCUCUCAUAGUUGGAAUUCUCGGGUGCCAA,0.785
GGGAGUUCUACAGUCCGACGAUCGUAGUGAUUCUUGGAAAGAAUUUGAGGUCCCCAAAGGUGUAUUUUUGGGCAAAUGAAACCAUAAACUCCGACUGGCUUCUGUAGAUGCCAAAGGGCUCUUUUUCAGCUAAUGGAAUUCUCGGGUGCCAA,0.294
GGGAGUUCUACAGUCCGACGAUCAAUCCCUUCCUUUCACUAUCUUCUUUUUGGGGGGUAGGUGGAAGGGAUUGACAUUGGAUGGGGGAGGUAGGAGGCACAUCAAUAAAAAGGAAACCACCGAGCUGAAUUGAUGGAAUUCUCGGGUGCCAA,0.459
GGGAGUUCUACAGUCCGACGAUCCUCUGCCUCCUUCUCUCUGCCUGGUUCUUCAGAAGGCAGUGAAUGGGUCAUAACUGGGACUCCAUCUUUGCUGGGGAAAGUCUCCCACCUAGGGAAUGGUUACCACUCCAUGGAAUUCUCGGGUGCCAA,1.07
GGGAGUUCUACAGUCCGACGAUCUGGGAAGCAGGCCUUGCCCCUGUCCCACCACUCAUUCUCAGCUUUGAAUGGGAGGCCUUUCUAUAGUGGAGGCCUUUCCUUGAAGCCUAUGAACUGCAGGCCCCCUUUUGUGGAAUUCUCGGGUGCCAA,0.272
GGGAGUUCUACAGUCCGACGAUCACCCAGUGGACCUGAACUGUUUGGUAGAGCCACCCGGCCCUUCCUUCCUCAUUGUUGUUUGGUAUGCGCACAGUUCCUGUGGGACUGGGCCGUGAGUUUUCCAUUGGAAAUGGAAUUCUCGGGUGCCAA,0.692
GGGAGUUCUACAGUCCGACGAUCGAAUAAGGUGUCACCUCCCUGAAAUUGCAUAUAUGUAUAUAGACAUGCACACGUGUGCAUUUGUUUGUAUACAUAUAUUUGUCCUUCGUAUAGCAAGUUUUUUGCUCAUCUGGAAUUCUCGGGUGCCAA,0.332
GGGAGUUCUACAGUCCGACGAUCCAUCAGCUACCCCUGCAGCUGGGGAAGACUUAUGCCAUCCCGGCAGCGAGGCUGGGCUGGCCAGCCACCACUGACUAUACCAACUGGGCCUCUGAUGUUCUUCCAGUGAGUGGAAUUCUCGGGUGCCAA,0.221

# Study 4
# Target: Replicase polyprotein 1ab, polymerase (rep, Severe acute respiratory syndrome coronavirus 2, UniProt P0DTD1)
# Read-out: enzyme activity
# Action: inhibitor
# Tested at: 20 µM
SMILES,inhibition [%]
O=C(O)c1ccc2nc(-c3cc(Cl)cc(Cl)c3)oc2c1,-4.59
CNCc1ccc(-c2[nH]c3cc(F)cc4c3c2CCNC4=O)cc1,36.6
CCOc1ccc(NC(=O)CC(C)O)cc1 (stereo not drawn),-1.82
NS(=O)(=O)c1cc2c(cc1Cl)NC(CC1CCCC1)NS2(=O)=O (stereo not drawn),-2.64
CCn1cc(C(=O)O)c(=O)c2cc(F)c(N3CCNCC3)cc21,16.2
Oc1cc(O)cc(/C=C/c2ccc(O)c(O)c2)c1,11
CC1(C)C[C@@H]1C(=O)N/C(=C\CCCCSC[C@H](N)C(=O)O)C(=O)O,5.85
Cc1ccc(Oc2ccccc2-c2csc(N=C3NCCCN3)n2)c(C)c1,-4.35
COc1cccc2c1C(=O)c1c(O)c3c(c(O)c1C2=O)C[C@@](O)(C(=O)CO)C[C@@H]3O[C@H]1C[C@H](N)[C@H](O[C@@H]2CCCCO2)[C@H](C)O1,56.1
CN1C[C@H](CNC(=O)OCc2ccccc2)C[C@@H]2c3cccc4c3c(cn4C)C[C@H]21,1.5
NCC(=O)O,-4.29
O=C(NCCNCC(O)COc1ccc(O)cc1)N1CCOCC1 (stereo not drawn),-5.99
Cc1cn([C@@H]2C[C@@H](O)[C@H](CO)O2)c(=O)[nH]c1=O,3.73
CCCCCCCCCCCCCCCCO,-9.3
CC(C(=O)O)c1ccc(C(=O)c2cccs2)cc1 (stereo not drawn),-0.46
Cn1cnnc1Sc1c([N+](=O)[O-])ncn1C,2.96
CN(C)C(=O)Oc1cc(OC(=O)N(C)C)cc(C(O)CNC(C)(C)C)c1 (stereo not drawn),-3.91
COc1ccc2[nH]c(C(=O)c3ccccc3)cc2c1,3.99
Cc1ccc(-n2nc(C(C)(C)C)cc2NC(=O)NCc2cc(F)ccc2Oc2ccc3c(cnn3CCO)c2)cc1,2.73
CC(C)(C)NC(=O)[C@@H]1C[C@@H]2CCCC[C@@H]2CN1C[C@@H](O)[C@H](Cc1ccccc1)NC(=O)[C@H](CC(N)=O)NC(=O)c1ccc2ccccc2n1,6.84
Cc1ccc(C(=O)C(C)CN2CCCCC2)cc1 (stereo not drawn),3.28
COc1ccc(C(=O)c2ccc(C)cc2)c(O)c1,5.71
COc1ccc2c(c1)-c1nn(CCCN(C)C)c3ccc([N+](=O)[O-])c(c13)N2,30.5
Nc1nc(-c2nn(Cc3ccccc3F)c3ncccc23)ncc1C1CC1,-1.85
COC(=O)[C@H](CC(C)C)NC(=O)c1ccc(NC[C@@H](N)CS)cc1-c1cccc2ccccc12,-1.97

# Study 5
# Cell line: HEK-293T
# Read-out: pseudovirus infection
# Method: FDA-approved drug library screen
# Organism: VSV pseudotyped with SARS-CoV-2 spike
# Tested at: 10 µM
# Time: 16 h
# Relative to: vehicle-treated
SMILES,GFP-positive cells [%]
Cc1nc(-c2ccc(OCC(C)C)c(C#N)c2)sc1C(=O)O,74
C[C@]12CC[C@@H]3c4ccc(OS(=O)(=O)O)cc4CC[C@H]3[C@@H]1CCC2=O,104
CC[C@@H](CO)NCCN[C@@H](CC)CO,82.5

# Other studies, line by line
Molecule,target,assay,system,conditions,how to read,measurement,result
ACCGTGCG,"Protein max, full length (MAX, Homo sapiens, UniProt P61244-2, residues 1-151)",protein-binding microarray,"double-stranded DNA, one strand shown, in vitro","not given, k-mer, scored over probes, only values ≥0.25",higher = stronger binding,E-score,0.259
NC(Cc1cc(O)c(O)cc1O)C(=O)O (stereo not drawn),"Replicase polyprotein 1ab, main protease (rep, Severe acute respiratory syndrome coronavirus 2, UniProt P0DTD1)","fluorogenic substrate cleavage, inhibitor",,"60 min preincubation, 37 °C, added: 1 mM DTT",,IC50,> 20 µM
ACAACAA,"Transcription factor SOX-2, HMG box (SOX2, Homo sapiens, UniProt P48431, residues 19-118)",protein-binding microarray,"double-stranded DNA, one strand shown, in vitro","not given, k-mer, scored over probes, only values ≥0.25",higher = stronger binding,E-score,0.373
CACCCCGC,"Max dimerization protein 1, bHLH-zipper, MAX partner unstated (MXD1, Homo sapiens, UniProt Q05195, residues 56-136)",protein-binding microarray,"double-stranded DNA, one strand shown, in vitro","not given, k-mer, scored over probes, only values ≥0.25",higher = stronger binding,E-score,0.283
ATTTTGCC,"Protein C-ets-1 (ETS1, Homo sapiens, UniProt P14921, residues 1-441, Y397A, full length assumed)",protein-binding microarray,"double-stranded DNA, one strand shown, in vitro","not given, k-mer, scored over probes, only values ≥0.25",higher = stronger binding,E-score,0.262

# Some of these lines once more (other studies, line by line):
Molecule,target,assay,system,conditions,how to read,measurement,result
ACCGTGCG,"Protein max, full length (MAX, Homo sapiens, UniProt P61244-2, residues 1-151)",protein-binding microarray,"double-stranded DNA, one strand shown, in vitro","not given, k-mer, scored over probes, only values ≥0.25",higher = stronger binding,E-score,0.259
NC(Cc1cc(O)c(O)cc1O)C(=O)O (stereo not drawn),"Replicase polyprotein 1ab, main protease (rep, Severe acute respiratory syndrome coronavirus 2, UniProt P0DTD1)","fluorogenic substrate cleavage, inhibitor",,"60 min preincubation, 37 °C, added: 1 mM DTT",,IC50,> 20 µM
ACAACAA,"Transcription factor SOX-2, HMG box (SOX2, Homo sapiens, UniProt P48431, residues 19-118)",protein-binding microarray,"double-stranded DNA, one strand shown, in vitro","not given, k-mer, scored over probes, only values ≥0.25",higher = stronger binding,E-score,0.373
CACCCCGC,"Max dimerization protein 1, bHLH-zipper, MAX partner unstated (MXD1, Homo sapiens, UniProt Q05195, residues 56-136)",protein-binding microarray,"double-stranded DNA, one strand shown, in vitro","not given, k-mer, scored over probes, only values ≥0.25",higher = stronger binding,E-score,0.283
ATTTTGCC,"Protein C-ets-1 (ETS1, Homo sapiens, UniProt P14921, residues 1-441, Y397A, full length assumed)",protein-binding microarray,"double-stranded DNA, one strand shown, in vitro","not given, k-mer, scored over probes, only values ≥0.25",higher = stronger binding,E-score,0.262
